Measurements collected from several papers.
Each line is one published result; not all experiments were run side by side. ± gives the spread as reported.
CYP3A4: Cytochrome P450 3A4 (CYP3A4, Homo sapiens, UniProt P08684)
Sequence of UniProt P08684 (whole entry, looked up): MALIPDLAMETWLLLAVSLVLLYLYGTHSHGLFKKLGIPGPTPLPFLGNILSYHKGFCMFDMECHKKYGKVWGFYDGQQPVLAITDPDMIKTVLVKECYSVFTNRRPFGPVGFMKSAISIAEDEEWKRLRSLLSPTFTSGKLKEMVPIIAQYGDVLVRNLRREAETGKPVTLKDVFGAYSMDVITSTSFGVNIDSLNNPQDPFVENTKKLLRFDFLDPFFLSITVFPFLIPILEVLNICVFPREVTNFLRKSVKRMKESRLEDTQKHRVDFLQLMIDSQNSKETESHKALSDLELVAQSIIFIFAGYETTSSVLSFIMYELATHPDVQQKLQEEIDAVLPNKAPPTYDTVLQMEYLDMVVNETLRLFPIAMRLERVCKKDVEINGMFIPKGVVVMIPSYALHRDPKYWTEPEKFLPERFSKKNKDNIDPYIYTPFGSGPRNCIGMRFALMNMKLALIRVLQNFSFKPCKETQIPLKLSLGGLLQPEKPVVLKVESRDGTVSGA
CTSD: Cathepsin D (CTSD, Homo sapiens, UniProt P07339)
Sequence of UniProt P07339 (whole entry, looked up): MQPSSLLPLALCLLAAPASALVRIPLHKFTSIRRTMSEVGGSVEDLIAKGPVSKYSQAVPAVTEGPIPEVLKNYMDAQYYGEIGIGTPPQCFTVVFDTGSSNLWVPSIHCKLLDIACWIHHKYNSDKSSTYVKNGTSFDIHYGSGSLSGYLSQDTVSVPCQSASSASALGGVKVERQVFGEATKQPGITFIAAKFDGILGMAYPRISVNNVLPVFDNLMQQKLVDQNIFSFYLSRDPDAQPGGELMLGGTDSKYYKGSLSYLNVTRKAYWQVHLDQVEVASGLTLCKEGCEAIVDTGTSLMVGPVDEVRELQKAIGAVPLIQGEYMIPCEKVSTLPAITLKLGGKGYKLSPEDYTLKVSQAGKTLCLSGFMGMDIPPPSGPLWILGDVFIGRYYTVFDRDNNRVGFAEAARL
Sequence of UniProt Q16696 (whole entry, looked up): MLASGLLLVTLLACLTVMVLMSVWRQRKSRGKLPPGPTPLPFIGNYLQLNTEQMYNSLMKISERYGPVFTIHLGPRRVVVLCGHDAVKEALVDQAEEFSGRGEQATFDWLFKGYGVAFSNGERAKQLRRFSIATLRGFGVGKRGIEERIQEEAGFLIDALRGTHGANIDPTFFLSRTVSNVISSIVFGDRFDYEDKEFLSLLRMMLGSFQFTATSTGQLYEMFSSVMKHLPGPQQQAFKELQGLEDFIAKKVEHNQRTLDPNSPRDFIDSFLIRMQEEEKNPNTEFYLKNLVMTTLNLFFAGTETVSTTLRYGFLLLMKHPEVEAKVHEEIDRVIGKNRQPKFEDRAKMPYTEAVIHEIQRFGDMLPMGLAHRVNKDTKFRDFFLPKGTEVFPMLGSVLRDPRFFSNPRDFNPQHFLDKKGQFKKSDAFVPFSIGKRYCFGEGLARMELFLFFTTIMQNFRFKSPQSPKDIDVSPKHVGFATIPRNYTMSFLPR
Sequence of UniProt Q96JM7 (whole entry, looked up): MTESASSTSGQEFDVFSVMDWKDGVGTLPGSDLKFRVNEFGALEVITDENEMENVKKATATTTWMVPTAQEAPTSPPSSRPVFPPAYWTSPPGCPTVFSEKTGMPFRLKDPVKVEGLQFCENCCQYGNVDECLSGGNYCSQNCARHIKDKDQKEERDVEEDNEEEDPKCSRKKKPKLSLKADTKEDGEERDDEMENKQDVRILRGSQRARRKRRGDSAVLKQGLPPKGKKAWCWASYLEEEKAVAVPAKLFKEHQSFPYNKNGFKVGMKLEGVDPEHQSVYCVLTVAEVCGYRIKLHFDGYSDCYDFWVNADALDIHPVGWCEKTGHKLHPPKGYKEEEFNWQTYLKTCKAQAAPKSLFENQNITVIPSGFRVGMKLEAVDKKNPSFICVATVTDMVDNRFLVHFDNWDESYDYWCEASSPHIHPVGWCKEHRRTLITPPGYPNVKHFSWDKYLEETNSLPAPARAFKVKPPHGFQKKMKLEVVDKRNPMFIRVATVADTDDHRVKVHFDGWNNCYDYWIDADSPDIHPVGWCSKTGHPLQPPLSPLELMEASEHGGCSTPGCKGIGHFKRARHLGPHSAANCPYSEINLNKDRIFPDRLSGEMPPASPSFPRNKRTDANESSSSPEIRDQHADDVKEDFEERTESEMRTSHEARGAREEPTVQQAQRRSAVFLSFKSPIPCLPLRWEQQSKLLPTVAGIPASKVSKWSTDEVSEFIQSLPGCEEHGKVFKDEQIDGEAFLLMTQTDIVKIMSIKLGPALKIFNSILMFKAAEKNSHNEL
Sequence of UniProt P08253 (whole entry, looked up): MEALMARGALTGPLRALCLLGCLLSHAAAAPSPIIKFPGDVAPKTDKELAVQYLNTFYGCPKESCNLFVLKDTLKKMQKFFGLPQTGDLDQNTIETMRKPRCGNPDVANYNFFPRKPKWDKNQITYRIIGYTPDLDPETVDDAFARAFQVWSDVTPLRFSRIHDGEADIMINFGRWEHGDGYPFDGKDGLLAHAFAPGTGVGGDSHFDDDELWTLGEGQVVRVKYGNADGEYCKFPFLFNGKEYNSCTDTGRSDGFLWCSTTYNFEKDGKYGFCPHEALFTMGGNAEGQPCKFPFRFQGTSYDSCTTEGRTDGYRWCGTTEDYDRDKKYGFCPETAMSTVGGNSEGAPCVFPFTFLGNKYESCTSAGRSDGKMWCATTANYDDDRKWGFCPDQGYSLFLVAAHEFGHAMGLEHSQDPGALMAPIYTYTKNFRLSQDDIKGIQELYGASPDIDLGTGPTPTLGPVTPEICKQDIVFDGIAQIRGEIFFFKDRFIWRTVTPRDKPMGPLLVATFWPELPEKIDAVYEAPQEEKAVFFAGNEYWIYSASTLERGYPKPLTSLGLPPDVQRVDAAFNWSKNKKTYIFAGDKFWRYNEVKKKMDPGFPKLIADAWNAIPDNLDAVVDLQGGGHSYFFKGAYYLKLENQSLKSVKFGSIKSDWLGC

For `CC(C)C[C@H](NC(=O)CNC(=O)[C@H](C)NC(=O)[C@H](CC(C)C)NC(=O)[C@H](CC(N)=O)NC(=O)[C@H](Cc1c[nH]c2ccccc12)NC(=O)[C@@H](NC(=O)[C@H](Cc1ccc(O)cc1)NC(=O)[C@H](Cc1ccc(O)cc1)NC(=O)[C@H](CO)NC(=O)[C@H](CCCNC(=N)N)NC(=O)[C@H](Cc1c[nH]cn1)NC(=O)[C@@H](N)Cc1c[nH]c2ccccc12)[C@@H](C)O)C(=O)N[C@H](C(=O)NCC(=O)N[C@@H](CCCCN)C(=O)O)C(C)C`, “nonspecific cleavage products” read < 5% (MMP2 (Homo sapiens, UniProt P08253); substrate, LC-MS; concentration not given, 48 h, 37 °C).
With `CC[C@H]1[C@@H](O)[C@@H]2[C@H](CC[C@]3(C)[C@@H]([C@H](C)CCNC(=O)NS(=O)(=O)c4ccc(C(C)(C)C)cc4)CC[C@@H]23)[C@@]2(C)CC[C@@H](O)C[C@@H]12` the half-life mean was 10.9 h (CYP3A4; human, plasma; dose not given, compound alone).
`CC(C)CC(=O)N[C@H](C(=O)N[C@H](C(=O)N[C@@H](CC(C)C)[C@@H](O)CC(=O)N[C@@H](C)C(=O)N[C@@H](CC(C)C)[C@@H](O)CC(=O)NCCCC[C@H](NC(=O)CCOCCOCCNC(=O)CN1CCN(CC(=O)O)CCN(CC(=O)O)CC1)C(=O)O)C(C)C)C(C)C` has a dissociation half-life of 3220 s (CTSD; binding, surface plasmon resonance).
`CC(C)=CCc1c(O)cc2c(c1O)C(=O)C[C@@H](c1ccc(O)cc1)O2` has an inhibition of < 10% (human CYP3A4; 10 µM, pH 7.4).
The remaining compound of `C[C@H]1CN(C2COC2)CCN1c1ccc(Nc2cc(-c3ccnc(N4CCn5c(cc6c5CC(C)(C)C6)C4=O)c3CO)cn(C)c2=O)nc1` is reported as 58.9 ± 8% (human liver microsomes CYP; human liver microsomes; 1 µM, 60 min, pH 7.4, together with: NADPH; baseline: 0 min).
For `COc1c(O)cc2c(c1O)C(=O)c1c(cc(C)c(O)c1OC)C2=O`, the viability was 64.9 ± 6.83% (HK-2 co-cultured with HepaRG; MTT; 66.67 µM, 48 h; baseline: untreated control).
`CC(C)CC(=O)N[C@H](C(=O)N[C@H](C(=O)N[C@@H](CC(C)C)[C@@H](O)CC(=O)N[C@@H](C)C(=O)N[C@@H](CC(C)C)[C@@H](O)CC(=O)NCCOCCOCCC(=O)NCCCC[C@H](NC(=O)CN1CCN(CC(=O)O)CCN(CC(=O)O)CC1)C(=O)O)C(C)C)C(C)C` has a dissociation half-life of 90.9 s (CTSD; SPR).
With `CN1C[C@@H]2C[C@H]1CN2c1cc2c(cc1F)c(=O)c(C(=O)O)cn2C1CC1` the efflux ratio was 12.3 ± 4.77 (ovine ABCG2; transepithelial transport; MDCK-II transduced with ovine ABCG2; 10 µM, 4 h; baseline: B-A over A-B).
`COc1cc2c(c(OC)c1OC)-c1c(cc3c(c1OC)OCO3)[C@H](OC(=O)c1ccccc1)[C@@](C)(O)[C@@H](C)C2` gave an IC50 ratio of 9.4 (human recombinant CYP3A4 and CYP3A5; item: 6β-hydroxytestosterone; 15 min, pH 7.4, together with: testosterone 50 µM; baseline: CYP3A4 over CYP3A5).
`Cc1oc2ccccc2c1Cc1cc(I)c(OCC(=O)O)c(I)c1` — result for “activation at negative voltages”: “inhibited” (KCNH2 (Homo sapiens, UniProt Q12809, Y652A); potassium current, two-electrode voltage clamp; Xenopus oocytes; 50 µM).
For `O=C(Nc1c2c(cc3c1CCC3)CCC2)NS(=O)(=O)/C=C/c1nccs1`, the inhibition was < 0% (human CYP3A4; human liver microsomes; 10 µM, pH 7.4, together with: testosterone).
`O=C(/C=C/c1cccnc1)NCCCCC1CCN(C(=O)c2ccccc2)CC1` — result for “aminopyrine N-demethylase activity”: 5.25 nmol/min/mg (rat cytochrome P450; inhibitor; rat liver microsomes; 1 µM, 15 min, pH 7.4, together with: aminopyrine 2 mM).
`CC(C)=CCc1c(O)cc(O)c2c1O[C@H](c1ccc(O)cc1)CC2=O` gave an inhibition of 31.4 ± 2.8% (human CYP3A4; 10 µM, pH 7.4).
The viability of `Cc1cc(O)c2c(c1)C(=O)c1cccc(O)c1C2=O` is reported as 23.6 ± 8.53% (HK-2 co-cultured with HepaRG; MTT; 266.67 µM, 48 h; baseline: untreated control).
`Cc1cc(Nc2ncnc3ccc(NC4=NC(C)(CO)CO4)cc23)ccc1Oc1ccn2ncnc2c1` (centres unmarked): “AUC(0-t) (geometric mean)” 482 ng·h/mL (CYP3A4; human, plasma; oral, 300 mg tucatinib single dose, day 1, tucatinib alone).
`C#C[C@]1(O)CC[C@H]2[C@@H]3CCC4=CC(=NO)CC[C@@H]4[C@H]3CC[C@@]21CC` (mixture of isomers): “unbound fraction in microsomes” 1 (human CYP3A4; retrograde calculation; microsomal incubation).
With `CCC#Cc1ccc(-c2ccccc2)cc1` the IC50 was 30 to 90 µM (Cytochrome P450 2A13 (Homo sapiens, UniProt Q16696); enzyme activity, inhibitor; together with: 10 µM coumarin).
`O=C(c1ccc(C(=O)N2CCC(N3CCCC3)CC2)c(Nc2ccccc2)c1)N1CCC(N2CCCC2)CC1` — result for “FRAP recovery half-time”: 6.5 s (Lethal(3)malignant brain tumor-like protein 3, MBT domains (Homo sapiens, UniProt Q96JM7); FRAP; human cells; 0.05 µM).
`CCCCC1=NC2(CCCC2)C(=O)N1Cc1ccc(-c2ccccc2S(=O)(=O)Nc2noc(C)c2C)c(COCC)c1` gave a Hill coefficient of 1.57 (CYP2C19; enzyme induction, inducer; human).
Under “relative enzyme activity”, `COc1ccc2[nH]c([S+]([O-])Cc3ncc(C)c(OC)c3C)nc2c1` (centres unmarked) is recorded as 23.6 (CYP1A2 human; inducer; hepatocytes lot HC3-31; 100 µM; baseline: DMSO).

Excerpt of the above:
For `O=C(Nc1c2c(cc3c1CCC3)CCC2)NS(=O)(=O)/C=C/c1nccs1`, the inhibition was < 0% (human CYP3A4; human liver microsomes; 10 µM, pH 7.4, together with: testosterone).
`CC(C)=CCc1c(O)cc(O)c2c1O[C@H](c1ccc(O)cc1)CC2=O` gave an inhibition of 31.4 ± 2.8% (human CYP3A4; 10 µM, pH 7.4).
`O=C(/C=C/c1cccnc1)NCCCCC1CCN(C(=O)c2ccccc2)CC1` — result for “aminopyrine N-demethylase activity”: 5.25 nmol/min/mg (rat cytochrome P450; inhibitor; rat liver microsomes; 1 µM, 15 min, pH 7.4, together with: aminopyrine 2 mM).
